Measured values pooled from the literature.
Lines come from different studies, so protocols differ. ± gives the spread as reported.

C[C@H]1CN(C(=O)CC#N)[C@]12CCN(c1ncnc3[nH]ccc13)C2  AUC(0-inf) (healthy human, plasma; oral, 6 mg single, mean): 222 ng·h/mL
C=CC(=O)N(C)CCOc1c(N)ncnc1-c1cc(F)cc(NC(=O)c2ccc(C3CC3)cc2F)c1C  AUC(0-inf) (human, whole blood; oral, 15 mg, single ascending dose): 41.3 ng·h/mL
Cc1ccc(C(=O)N(CCCN)C(c2nc3snc(C)c3c(=O)n2Cc2ccccc2)C(C)C)cc1 (centres unmarked)  AUC(0-inf) (human; intravenous, all doses pooled, course day 3 following induction, geometric mean): 860 ng·h/mL
Cc1cc(C)c(CNC(=O)c2cc(Cl)c3c(c2C)O[C@@](C)([C@H]2CC[C@H](N(C)C)CC2)O3)c(=O)[nH]1  AUC(0-inf) (geometric LS mean; healthy male humans, plasma; oral, dose not given, added: fluconazole): 967 ng·h/mL
NC[C@@]1(CC(=O)O)[C@@H]2CC[C@H]3C[C@@H]2[C@@H]1C3  AUC(0-inf) (human, moderately renal impairment, plasma; dose not given, geometric least squares mean): 3920 ng·h/mL
C[C@@H](Oc1ccc(S(C)(=O)=O)cc1C(=O)N1C[C@@H]2C[C@]2(c2cc(C(F)(F)F)on2)C1)C(F)(F)F  AUC(0-inf) (elderly humans, plasma; oral, 25 mg once daily, single dose, geometric mean): 11.7 µM·h
Cc1cc(C)c(CNC(=O)c2cc(Cl)c3c(c2C)O[C@@](C)([C@H]2CC[C@H](N(C)C)CC2)O3)c(=O)[nH]1  AUC(0-inf) (human, plasma; oral, 200 mg [14C] single dose): 14200 ng·h/mL
C=CC(=O)NC1CCN(c2ncc3ncnc(Nc4ccc(Oc5ccc6c(c5)ncn6C)c(C)c4)c3n2)CC1  AUC(0-inf) (human, male, plasma; oral, 30 mg, fed, adjusted geometric mean): 4.43 µM·h
Cn1cncc1[C@@](N)(c1ccc(Cl)cc1)c1ccc2c(c1)c(-c1cccc(Cl)c1)cc(=O)n2C  AUC(0-inf) (human, acute leukaemia, plasma; 200 mg/m^2, estimated from steady-state AUC(0-12h)): 4220 ng·h/mL
CCCOc1ccc(NC(=O)CN2CCN(C)CC2)cc1-c1nc(CC)c(CC)c(=O)[nH]1  AUC(0-inf) (human, fasting, plasma; oral, 10 mg, added: alcohol 0.5 g/kg): 585 ± 83.6 ng·h/mL
CC(C)n1c(Nc2cccnc2)nc2cnc(Nc3ccc(N4CCN(C)CC4)cc3)nc21  AUC(0-inf) (human, male, plasma; oral, 150 mg, day 15, added: rifampin 600 mg daily): 1000 ng·h/mL
CN(CC#N)C(=O)C[C@H](Nc1nc2ccccc2[nH]1)c1cccc(C(F)(F)F)c1  AUC(0-inf) (human; intravenous infusion, 2 mg/kg, 10 mg/mL formulation): 16100 ± 8600 ng·h/mL
Cn1cncc1[C@@](N)(c1ccc(Cl)cc1)c1ccc2c(c1)c(-c1cccc(Cl)c1)cc(=O)n2C  AUC(0-inf) (healthy human subjects, plasma; oral, 100 mg, fed (high-fat meal)): 1240 ng·h/mL
[H]/N=C(/N)c1ccc(NCc2nc3cc(C(=O)N(CCC(=O)O)c4ccccn4)ccc3n2C)cc1  AUC(0-inf) (healthy human subjects, plasma; oral, 150 mg dabigatran etexilate, geometric mean): 1010 ng·h/mL
CN(C)C(=O)c1cc2cnc(Nc3ccc(N4CCNCC4)cn3)nc2n1C1CCCC1  AUC(0-inf) (human, severe renal impairment, plasma; oral, 400 mg, geometric mean): 10900 ng·h/mL
O=C(O)CCC(=O)O.[2H]C([2H])([2H])Oc1cc(C)c2[nH]ccc2c1CN1CC[C@@H](C2CC2)C[C@H]1c1ccc(C(=O)O)cc1  AUC(0-inf) (LC-MS/MS, geometric mean; human, plasma; 400 mg, single dose, fasting): 151000 ng·h/mL
N[C@@H]1c2cccnc2[C@H](OC(=O)N2CCC(n3c(=O)[nH]c4ncccc43)CC2)CC[C@H]1c1cccc(F)c1F  AUC(0-inf) (human, plasma; oral, 75 mg single dose, alone, arithmetic mean, itraconazole DDI study): 4860 ng·h/mL
Cn1c(=O)oc2ccc(-c3ccc(C[C@@H](C#N)NC(=O)[C@@H]4CNCCCO4)cc3)cc21  AUC(0-inf) (human, mild renal impairment, plasma; oral, 25 mg single dose, geometric least squares mean): 3430 ng·h/mL
CN1C(=O)[C@@H](NC(=O)c2nnc(Cc3ccccc3)[nH]2)COc2cccnc21  AUC(0-inf) (healthy human, fasted, plasma; oral, 800 mg single dose, geometric mean): 87300 ng·h/mL
Nc1ccn([C@@H]2O[C@H](CO)[C@@H](O)C2(F)F)c(=O)n1  AUC(0-inf) (HPLC-UV; human, plasma; intravenous, 800 mg/m^2, mean, after paricalcitol): 17800 ng·h/mL

Excerpt of the above:
Cn1c(=O)oc2ccc(-c3ccc(C[C@@H](C#N)NC(=O)[C@@H]4CNCCCO4)cc3)cc21  AUC(0-inf) (human, mild renal impairment, plasma; oral, 25 mg single dose, geometric least squares mean): 3430 ng·h/mL
CN1C(=O)[C@@H](NC(=O)c2nnc(Cc3ccccc3)[nH]2)COc2cccnc21  AUC(0-inf) (healthy human, fasted, plasma; oral, 800 mg single dose, geometric mean): 87300 ng·h/mL
